Experimental data of several laboratories.
Compare with care: the assays were run in different laboratories. ± gives the spread as reported.

COc1cc(O)ccc1CCC(c1ccc(O)cc1)c1cc2c(c(C)c1O)OC(c1ccc(O)cc1)CC2 (mixture of isomers)
DHA level (human blood; 1 µM, together with: A23187): 127000 ± 31700 pg/mL

COC1CN([C@H]2CC[C@H]([C@@]3(C)Oc4c(Cl)cc(C(=O)NCc5c(SC)cc(C)[nH]c5=O)c(C)c4O3)CC2)C1
log2 fold change (RNA-seq, refers to: ENAH mouse homolog; mouse, HT-1376 xenograft, whole blood; dose not given; baseline: vehicle): 0.758

CNS(=O)(=O)Nc1nccc(Cc2c(C)c3ccc(Oc4ncccc4F)cc3oc2=O)c1F
IC50 (HMVII; cell viability, CellTiter-Glo; 7 days): 2.54 nM

C[n+]1ccc(/C=N/NC(=O)C(=O)N/N=C/c2cc[n+](C)c3ccccc23)c2ccccc21
ΔTm (myc22 MYC G4-DNA parallel; FRET melting; 1 µM, K1 buffer, DNA 0.2 µM, together with: ds26 10 µM): 4.8 ± 0.5 °C

C=C(NC(=O)c1csc(-c2nc3c(cc2O)-c2nc(cs2)C(=O)NC(C(C)O)C(=O)NC(=C(C)OC)c2nc(cs2)C(=O)NC2c4nc(cs4)C(=O)NC(COC(=O)c4c5c6c(cccc6n4O)COC(=O)C(OC4CC(C)(O)C(N(C)C)C(C)O4)C2OC5)c2nc-3cs2)n1)C(N)=O (centres unmarked)
ED50 (Streptococcus pneumoniae; -4, immunocompromised mice, lung infection; tid dosing): 6.17 mg/kg

C[n+]1ccc(/C=N/NC(=O)c2cccc(C(=O)N/N=C/c3cc[n+](C)cc3)n2)cc1
ΔTm (myc22 MYC G4-DNA parallel; FRET melting; 1 µM, K1 buffer, DNA 0.2 µM, together with: ds26 10 µM): 5.2 ± 0.3 °C

C=CC(=O)Nc1cccc(Cn2ncc3cnc(Nc4cnn(CCOC)c4)nc32)c1
percent of control (HCK human; binding, KINOMEscan; 100 nM; lower = stronger binding): 100%

Nc1ncc(-c2cc(-c3cnn(CC(F)(F)F)c3)ncc2F)nc1C(=O)NC1CNCC(F)C1 (centres unmarked)
remaining binding (EPHA8; KINOMEscan; 1 µM; baseline: DMSO control): 95%

O=C(N/N=C/c1ccc2c(ccc[n+]2Cc2ccccc2)c1)C(=O)N/N=C/c1ccc2c(ccc[n+]2Cc2ccccc2)c1
ΔTm (myc22 MYC G4-DNA parallel; FRET melting; 1 µM, K1 buffer, DNA 0.2 µM, together with: ds26 10 µM): 4.8 ± 0.1 °C

CN1CCCNC(=O)c2cccc(c2)C(=O)NCCCN(C)CCCNc2cccc3c2C(=O)c2cccc(c2C3=O)NCCC1
log2 fold change (SAS; RNA-Seq, refers to: SLFN5 mRNA; 1 µM, 6 h; baseline: untreated cells): 1.71

Cc1ncsc1-c1ccc(C(C)NC(=O)C2CC(O)CN2C(=O)C(NC(=O)CCCCCCCCCCN2CCCC(Nc3ncc(Cl)c(Nc4ccccc4S(=O)(=O)C(C)C)n3)C2)C(C)(C)C)cc1 (centres unmarked)
log2 fold change (22Rv1; RNA-seq, refers to: MMS22L; concentration not given; baseline: DMSO): -1.01

A few entries again:
Nc1ncc(-c2cc(-c3cnn(CC(F)(F)F)c3)ncc2F)nc1C(=O)NC1CNCC(F)C1 (centres unmarked)
remaining binding (EPHA8; KINOMEscan; 1 µM; baseline: DMSO control): 95%
